Values quoted from earlier work as cited in several papers.
Lines come from different studies, so protocols differ. ± marks the error that the study gave.
Chain of UniProt P12392 (whole entry, looked up): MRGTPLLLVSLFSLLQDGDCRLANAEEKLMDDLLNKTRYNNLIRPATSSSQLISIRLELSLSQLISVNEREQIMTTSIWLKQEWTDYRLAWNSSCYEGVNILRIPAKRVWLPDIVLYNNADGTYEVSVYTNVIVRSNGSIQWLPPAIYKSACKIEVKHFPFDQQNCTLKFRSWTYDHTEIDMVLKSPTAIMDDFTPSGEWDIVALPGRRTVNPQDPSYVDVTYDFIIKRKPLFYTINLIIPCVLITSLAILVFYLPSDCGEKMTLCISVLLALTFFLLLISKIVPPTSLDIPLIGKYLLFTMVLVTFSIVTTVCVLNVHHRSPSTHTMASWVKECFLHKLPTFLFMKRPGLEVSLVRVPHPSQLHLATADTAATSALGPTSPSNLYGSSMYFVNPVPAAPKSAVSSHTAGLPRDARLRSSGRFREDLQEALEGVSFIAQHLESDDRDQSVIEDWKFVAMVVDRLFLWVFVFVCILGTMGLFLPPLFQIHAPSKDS
Chain of UniProt P04757 (whole entry, looked up): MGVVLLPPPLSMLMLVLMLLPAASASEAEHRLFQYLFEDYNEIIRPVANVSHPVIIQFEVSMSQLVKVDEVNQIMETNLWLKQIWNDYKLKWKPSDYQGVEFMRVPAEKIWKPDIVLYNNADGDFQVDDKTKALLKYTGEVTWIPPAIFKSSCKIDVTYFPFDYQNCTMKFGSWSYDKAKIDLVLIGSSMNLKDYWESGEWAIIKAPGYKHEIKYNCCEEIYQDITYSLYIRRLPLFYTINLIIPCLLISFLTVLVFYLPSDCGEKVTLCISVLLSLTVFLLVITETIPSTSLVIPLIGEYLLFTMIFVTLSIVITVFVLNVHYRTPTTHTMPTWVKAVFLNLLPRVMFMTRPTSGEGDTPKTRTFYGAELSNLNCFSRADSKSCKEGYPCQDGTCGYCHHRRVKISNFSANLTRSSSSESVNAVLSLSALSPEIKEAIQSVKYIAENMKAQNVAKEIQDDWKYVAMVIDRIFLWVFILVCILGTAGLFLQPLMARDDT
Chain of UniProt P28335 (whole entry, looked up): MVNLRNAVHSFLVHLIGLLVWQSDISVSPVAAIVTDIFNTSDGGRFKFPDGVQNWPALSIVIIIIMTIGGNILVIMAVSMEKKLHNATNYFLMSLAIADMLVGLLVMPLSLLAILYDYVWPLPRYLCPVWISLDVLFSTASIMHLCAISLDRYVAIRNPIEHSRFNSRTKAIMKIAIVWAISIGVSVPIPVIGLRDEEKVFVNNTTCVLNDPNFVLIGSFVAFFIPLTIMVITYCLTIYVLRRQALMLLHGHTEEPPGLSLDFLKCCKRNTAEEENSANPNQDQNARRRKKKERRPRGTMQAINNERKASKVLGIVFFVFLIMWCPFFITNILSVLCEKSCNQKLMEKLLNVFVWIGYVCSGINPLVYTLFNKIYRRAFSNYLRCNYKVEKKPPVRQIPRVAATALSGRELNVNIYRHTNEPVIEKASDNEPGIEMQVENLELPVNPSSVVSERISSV
Chain of UniProt P0DW61 (whole entry, looked up): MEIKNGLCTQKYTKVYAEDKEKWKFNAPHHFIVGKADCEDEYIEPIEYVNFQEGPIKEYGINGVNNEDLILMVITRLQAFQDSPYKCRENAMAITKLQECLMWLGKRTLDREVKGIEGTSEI

| Structure (SMILES) | target | test | system | setting | quantity | value |
| --- | --- | --- | --- | --- | --- | --- |
| COc1cc(CC(C)N)c(OC)cc1I (racemic) [iodine-125 labelled] | 5-hydroxytryptamine receptor 2C (HTR2C, Homo sapiens, UniProt P28335) | radioligand binding | HEK293 cells | – | Kd | 0.0009 µM |
| Nc1ncnc2c1ncn2[C@@H]1O[C@@H]2COP(=O)(O)OP(=O)(O)OC[C@H]3O[C@@H](O[C@@H]1[C@@H]2O)[C@H](O)[C@@H]3O | tad1 (Metaclostridioides mangenotii, UniProt P0DW61) | binding | – | – | Kd | 0.241 µM |
| CCS(=O)(=O)n1c2c(c3cc(C(=O)N4CCC(C)CC4)ccc31)CN(CC1CC1)C2 | CB2 receptor | binding | – | – | Ki | 0.0063 µM |
| c1c[nH]cn1 | catalase | binding | – | pH 7 | Kd | no binding |
| O=C(NN1CCCCC1)c1nc(-c2ccc(Cl)cc2Cl)c(-c2ccc(Cl)cc2)s1 | CB2 receptor | binding | – | – | Ki | 5.84 µM |
| NCC1C=Nc2nc(N)[nH]c(=O)c21 (stereo not drawn) | class I type II riboswitch, Tte | – | – | single binding equivalent | Kd | 0.0021 ± 0.0003 µM |
| NCc1cc(=O)[nH]o1 | GABA-A receptors | – | – | – | Kd | 0.05 µM |
| COc1ccc2c(=O)c(C(=O)NC3CCCCC3)cn(CCN3CCOCC3)c2c1 | CB1 receptor | binding | – | – | Ki | 2.92 µM |
| CN1CCc2[nH]c3ccccc3c2CC1 | Neuronal acetylcholine receptor; alpha3/beta4 (Rattus norvegicus, UniProt P04757+P12392) | inhibitor | – | together with: 100 µM acetylcholine | IC50 | 70 ± 5 µM |
| O=C(O)CC(=O)C(=O)O | Thermoplasma acidophilum citrate synthase W348Y | fluorescence titration | – | 20 °C, unliganded enzyme | Kd | 0.9 µM |
| CCc1c(C(=O)NN2CCCCC2)nc(-c2ccc(Cl)cc2Cl)n1-c1ccc(Cl)cc1 | CB1 receptor | binding | – | – | Ki | 0.03 µM |
| C[C@H](CCCC(C)(C)O)[C@H]1CC[C@H]2[C@@H]3CC=C4C[C@@H](O)CC[C@]4(C)[C@H]3CC[C@]12C | ORP2 | binding | – | – | Kd | 3.9 µM |

Repeated from above:
| Structure (SMILES) | target | test | system | setting | quantity | value |
| --- | --- | --- | --- | --- | --- | --- |
| CCS(=O)(=O)n1c2c(c3cc(C(=O)N4CCC(C)CC4)ccc31)CN(CC1CC1)C2 | CB2 receptor | binding | – | – | Ki | 0.0063 µM |
| Nc1ncnc2c1ncn2[C@@H]1O[C@@H]2COP(=O)(O)OP(=O)(O)OC[C@H]3O[C@@H](O[C@@H]1[C@@H]2O)[C@H](O)[C@@H]3O | tad1 (Metaclostridioides mangenotii, UniProt P0DW61) | binding | – | – | Kd | 0.241 µM |
